Experimental data pooled from the literature.
Every numbered part comes from another study and shows a few of its results, in no order.

Sample 1
Target: 5-hydroxytryptamine receptor 7 (HTR7, Homo sapiens, UniProt P34969)
Sequence of UniProt P34969 (whole entry, looked up): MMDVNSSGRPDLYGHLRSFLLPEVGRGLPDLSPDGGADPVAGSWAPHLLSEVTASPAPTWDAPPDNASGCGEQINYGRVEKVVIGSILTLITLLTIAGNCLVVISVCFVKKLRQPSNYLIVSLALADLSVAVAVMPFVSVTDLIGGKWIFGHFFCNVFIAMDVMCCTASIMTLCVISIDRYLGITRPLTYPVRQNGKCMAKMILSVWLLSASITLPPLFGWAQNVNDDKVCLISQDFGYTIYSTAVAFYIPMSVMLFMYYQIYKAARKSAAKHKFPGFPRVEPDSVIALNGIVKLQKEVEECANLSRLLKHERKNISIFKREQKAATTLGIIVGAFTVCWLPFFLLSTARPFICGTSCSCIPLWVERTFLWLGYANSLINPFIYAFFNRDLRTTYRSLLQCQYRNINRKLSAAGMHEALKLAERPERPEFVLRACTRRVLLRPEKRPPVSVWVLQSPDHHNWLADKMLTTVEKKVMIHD
Effect on: ligand displacement
Concentration: 10 µM
Measurement: inhibition
c1ccc(N2CCN(Cc3nc4ccccc4[nH]3)CC2)nc1: 28.5%
CN(C)CC#Cc1ccc(OCCCc2sc(N3CCc4cccc(C(=O)Nc5nc6ccccc6s5)c4C3)nc2C(=O)O)c(F)c1: -18.9%
O=C(NS(=O)(=O)c1ccc(NCC2CCOCC2)c([N+](=O)[O-])c1)c1ccc(N2CCN(Cc3ccc(C(F)(F)F)cc3-c3ccc(Cl)cc3)CC2)cc1Oc1cnc2[nH]ccc2c1: -22.4%
COc1cc(-c2cn(C3CCc4c(F)cccc4N(CC(F)(F)F)C3=O)nn2)ccc1-n1cnc(C)c1 (centres unmarked): 26.8%
C[C@H](c1ccc(F)cc1)N(Cc1cccc(C(=O)O)c1)C(=O)c1cnc2ccccc2c1: -2.7%
CO[C@H]1CC[C@H](CNc2ccc(S(=O)(=O)NC(=O)c3ccc(N4CCN(CC5=C(c6ccc(Cl)cc6)CC(C)(C)CC5)CC4)cc3Oc3cnc4[nH]ccc4c3)cc2[N+](=O)[O-])CC1: -7.24%
CCC(F)(F)c1cc(N2CCC(S(C)(=O)=O)CC2)nc2sc(C(N)=O)c(N)c12: 13.7%
O=C(NCCCC1CCCCC1)c1ccc(CNC(=O)c2cnn(-c3ccccc3)c2C(F)(F)F)cc1: 25.8%
Nc1nc(NCc2ccccc2)nc(-c2cccc(CO)c2)n1: 15.9%
COc1cc(N[C@@H]2CCCC[C@]2(O)C(F)(F)F)ccc1F: -11.5%

Sample 2
Target: Sal-like protein 4, full length isoform B (SALL4, Homo sapiens, UniProt Q9UJQ4-2, residues 1-616)
Technique: universal PBM
Molecule type: double-stranded DNA, one strand shown
Medium: in vitro
Concentration: not given
Setting: 8-mer, flanks averaged, mean of replicates
Reading: higher = stronger binding
Measurement: E-score
CCTTTCAC: -0.0508
CAGTATGG: -0.0229
ATAGTTAC: 0.278
TGCTAGAA: -0.0306
GGCCAACC: -0.278
CCGGACGA: -0.167
AAGGATAC: -0.0351
TAACCTGA: 0.0199

Sample 3
Target: Serine/threonine-protein kinase Chk1 (CHEK1, Homo sapiens, UniProt O14757)
Effect on: enzyme activity
Mode: inhibitor
Concentration: 0.5 µM
Relative to: control
Measurement: remaining activity
Residues (O14757 1-476): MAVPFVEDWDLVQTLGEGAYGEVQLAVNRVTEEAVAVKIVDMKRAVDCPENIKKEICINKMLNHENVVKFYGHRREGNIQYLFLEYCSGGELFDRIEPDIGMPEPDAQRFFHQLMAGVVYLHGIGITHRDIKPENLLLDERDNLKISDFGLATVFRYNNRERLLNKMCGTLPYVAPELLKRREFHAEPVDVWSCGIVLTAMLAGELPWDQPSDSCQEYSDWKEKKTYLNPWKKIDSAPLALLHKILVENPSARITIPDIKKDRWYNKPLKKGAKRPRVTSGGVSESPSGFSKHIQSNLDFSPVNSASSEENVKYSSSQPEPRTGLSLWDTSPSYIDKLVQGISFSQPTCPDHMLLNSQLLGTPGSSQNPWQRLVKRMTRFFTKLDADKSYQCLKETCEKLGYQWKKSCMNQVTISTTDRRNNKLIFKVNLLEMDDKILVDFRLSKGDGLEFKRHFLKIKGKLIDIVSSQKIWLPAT
O=C1NC(=O)C(c2cn(CCCO)c3ncccc23)=C1c1cnccn1: 141%
O=C(O)c1ccc2c3c1cccc3c(=O)n1c3ccccc3nc21: 101%
COc1cc2ncnc(Nc3ccc(F)c(Cl)c3)c2cc1OCCCN1CCOCC1: 95.3%
COc1ccc(OC)c2c(=S)c3ccccc3[nH]c12: 92.7%
COc1ccc(CNC(=O)Nc2ncc([N+](=O)[O-])s2)cc1: 98%
Nc1ncnc2n[nH]c(Nc3ccc(F)cc3)c12: 88%
NCCNc1ncc(C(N)=O)c(Nc2cccc(C(F)(F)F)c2)n1: 68.7%
CCOC(=O)c1c(C)[nH]c(/C=C2\C(=O)Nc3ccccc32)c1C: 89.4%
Nc1[nH]nc2nc3ccccc3nc12: 187%
COc1cc2nccc(Oc3ccc(NC(=S)NC(=O)c4ccccc4C)cc3)c2cc1OC: 95.1%
CO[C@H]1C[C@@H]2CC[C@@H](C)[C@@](O)(O2)C(=O)C(=O)N2CCCC[C@H]2C(=O)O[C@H]([C@H](C)C[C@@H]2CC[C@@H](O)[C@H](OC)C2)CC(=O)[C@H](C)/C=C(\C)[C@@H](O)[C@@H](OC)C(=O)[C@H](C)C[C@H](C)/C=C/C=C/C=C/1C: 107%
Oc1ccc(-c2nc(-c3ccncc3)c(-c3ccc(F)cc3)[nH]2)cc1: 98.9%
CNC(=O)c1cc(Oc2ccc(NC(=O)Nc3ccc(Cl)c(C(F)(F)F)c3)cc2)ccn1: 173%
OCC(O)CCON=C1C(c2c(O)[nH]c3ccccc23)=Nc2ccccc21 (centres unmarked): 67%

Other studies, line by line
Technique: cross-linking MS
Medium: cell fractions
ACTN2 (Homo sapiens, UniProt P35609)
cross-linked residues (KDSR (Homo sapiens, UniProt Q06136); with: DMTMM): K748 to E110

MDH2 (Homo sapiens, UniProt P40926)
cross-linked residues (ACO2 (Homo sapiens, UniProt Q99798); with: DHSO): E232 to E639

NDUFS6 (Homo sapiens, UniProt O75380)
cross-linked residues (RIPOR1 (Homo sapiens, UniProt Q6ZS17); with: DSSO): T40 to S1104

Repeated from above (sample 3):
Nc1[nH]nc2nc3ccccc3nc12: 187%
COc1cc2nccc(Oc3ccc(NC(=S)NC(=O)c4ccccc4C)cc3)c2cc1OC: 95.1%
CO[C@H]1C[C@@H]2CC[C@@H](C)[C@@](O)(O2)C(=O)C(=O)N2CCCC[C@H]2C(=O)O[C@H]([C@H](C)C[C@@H]2CC[C@@H](O)[C@H](OC)C2)CC(=O)[C@H](C)/C=C(\C)[C@@H](O)[C@@H](OC)C(=O)[C@H](C)C[C@H](C)/C=C/C=C/C=C/1C: 107%
